Published values from different studies.
Each numbered part is a random draw from the data of one study; scales do not carry over between parts.

Sample 1
Target: Ras GTPase-activating protein-binding protein 1, full length (G3BP1, Homo sapiens, UniProt Q13283)
UniProt Q13283, sequence (whole entry, looked up): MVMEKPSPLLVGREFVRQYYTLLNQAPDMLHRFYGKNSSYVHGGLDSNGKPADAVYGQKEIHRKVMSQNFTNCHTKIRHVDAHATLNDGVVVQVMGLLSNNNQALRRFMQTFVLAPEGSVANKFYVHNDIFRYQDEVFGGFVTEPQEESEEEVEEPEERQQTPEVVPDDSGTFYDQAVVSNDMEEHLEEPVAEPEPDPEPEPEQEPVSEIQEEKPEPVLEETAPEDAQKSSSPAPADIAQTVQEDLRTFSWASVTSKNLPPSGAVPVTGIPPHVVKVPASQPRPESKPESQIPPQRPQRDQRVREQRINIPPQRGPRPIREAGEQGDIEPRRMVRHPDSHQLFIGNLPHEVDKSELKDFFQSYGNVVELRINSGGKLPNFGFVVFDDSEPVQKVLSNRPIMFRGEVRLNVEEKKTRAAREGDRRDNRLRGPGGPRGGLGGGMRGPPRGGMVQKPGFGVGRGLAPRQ
Technique: RNA Bind-n-Seq
Form: RNA
Medium: in vitro
Tested at: 200 nM
Notes: whole 134-nt RNA, ends assumed
With: 150 mM LiCl
Reference: input library
Direction: higher = stronger binding
All molecules: 7-deaza-guanosine replaces G
Sequence	log2 enrichment
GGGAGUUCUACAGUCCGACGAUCUCCUCAAGUCCUGUGCUACACAUCGUAUGUACCGAAUCGGCGGCGGGGCGGAAAGUAUUAUGUUACGCCGUUCGGAUCUGCACUUCCAGCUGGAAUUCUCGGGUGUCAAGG	0.766
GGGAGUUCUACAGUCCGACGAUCCAAGUCCUGUGCUACACAUCGUAUGUACCGAAUCGGAAAAAGGUUUUUGGUUUGGAAAGUAUUAUGUUACGCCGUUCGGAUCUGCACUUCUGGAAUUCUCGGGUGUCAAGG	-2.42
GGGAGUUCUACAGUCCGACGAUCCAAGUCCUGUGCUACACAUCGUAUGUACCGAAUCGGGUUUGGGGUUUGGUUUGGGGAAAGUAUUAUGUUACGCCGUUCGGAUCUGCACUUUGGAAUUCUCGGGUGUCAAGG	-1.01
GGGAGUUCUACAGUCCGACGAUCUUGGAGGUGGAUUUUGUUUAUUUUUUUAGCUCAUUUCCAGGGGUGGGAAUUUUUUUUUAAUAUGUGUCAUGAAUAAAGUUGUUUUUGAAAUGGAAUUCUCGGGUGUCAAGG	-0.508
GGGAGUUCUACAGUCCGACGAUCAGUCCUGUGCUACACAUCGUAUGUACCGAAUCAAACCCAAAUUUAAAUUUUUUUAAAAAAGUAUUAUGUUACGCCGUUCGGAUCUGCACUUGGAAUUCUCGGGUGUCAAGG	-0.635
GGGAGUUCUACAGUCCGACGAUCCCUCAAGUCCUGUGCUACACAUCGUAUGUACCGAAUCGGAAAAAGGAGGAGGAAAGUAUUAUGUUACGCCGUUCGGAUCUGCACUUCCAGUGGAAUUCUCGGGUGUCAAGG	-0.0946
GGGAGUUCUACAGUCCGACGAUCUCCUGUGCUACACAUCGUAUGUACCGAAUCGGUUUUUUGGGUUUUUUGGGUUUUUUGGGGAAAGUAUUAUGUUACGCCGUUCGGAUCUGCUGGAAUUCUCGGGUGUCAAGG	-0.446
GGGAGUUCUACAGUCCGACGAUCUCAAGUCCUGUGCUACACAUCGUAUGUACCGAAUCGGAGGAAAGGAAAAAAAGGAAAGUAUUAUGUUACGCCGUUCGGAUCUGCACUUCCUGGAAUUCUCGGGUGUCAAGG	-0.619
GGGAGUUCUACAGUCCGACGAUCGUCCUGUGCUACACAUCGUAUGUACCGAAUCGGGGUGGGGAAAAAGGGGUUUUUGGGGAAAGUAUUAUGUUACGCCGUUCGGAUCUGCACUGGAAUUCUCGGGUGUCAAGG	0.17
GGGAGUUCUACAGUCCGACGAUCUCAAGUCCUGUGCUACACAUCGUAUGUACCGAAUCGGGAAAGGGUUUGGGUGGGAAAGUAUUAUGUUACGCCGUUCGGAUCUGCACUUCCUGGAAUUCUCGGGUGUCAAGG	-0.562
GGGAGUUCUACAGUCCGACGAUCGUGCUACACAUCGUAUGUACCGAAUCGGGGCCCCCCCGGGGCCCCCCCGGGGCCCCCCCGGGGAAAGUAUUAUGUUACGCCGUUCGGAUCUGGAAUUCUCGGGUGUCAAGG	-1.06

Sample 2
Target: RNA binding protein fox-1 homolog 2, RRM domain, GST-SBP tag (RBFOX2, Homo sapiens, UniProt O43251-10, residues 100-194)
Technique: RNA Bind-n-Seq
Form: RNA
Medium: in vitro
Tested at: 365 nM
Notes: natural RNA segment, single round, ends assumed
Reference: no-protein control
Direction: higher = stronger binding
Target sequence (chain): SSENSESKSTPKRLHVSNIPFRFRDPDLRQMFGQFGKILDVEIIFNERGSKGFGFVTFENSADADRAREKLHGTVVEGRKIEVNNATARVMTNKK
Sequence	RBNS enrichment (R)
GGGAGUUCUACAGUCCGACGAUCUCAUGGAAAAUUAACCAGAAAGUAUCAGUUCUUAAAAGUUAUGCCUAGAAAUUAUGUAAAGCUAAACUACUGGUUAGAAAGUAUUCAGUGUAAUAUUGUAUUAAUUUGUUUGGAAUUCUCGGGUGCCAA	1.06
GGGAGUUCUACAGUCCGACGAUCCAGCAGCAGUCUAAUGCCAAGGUGCUCUAGAAACACUAAUGUUCCUCCAGGGGGGACUCCUCCCCACUCCCUCAGCCCUGGGGCCCCCCUAUCCUAAGACUCGGAAAGGCUGGAAUUCUCGGGUGCCAA	0.265
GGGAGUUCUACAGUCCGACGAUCUUUGUGAUGUCAUAGUGCAAACUGCAGUGACCGGUAAAAUGACCUGACAUGUAACCGUUUUCAGGGAAUGCAGAGGGUGUUAACUAAUAGACAAAACCUUUAUCCCGCGUUGGAAUUCUCGGGUGCCAA	0.387
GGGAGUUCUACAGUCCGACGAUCUGUUUUUCUUGUAAAUGUGUUGGACAAAUGUGAAGAUGCGUUGUAGUUUACCCAUAUGCCCACAUUUAGUCUCUUUAUUCCUAGUUGGUGAGAAACCUGUAUCUUUCUAUUGGAAUUCUCGGGUGCCAA	0.524
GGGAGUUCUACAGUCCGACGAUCAAGCUAAGUCACCCUGGUGUCAUUCUGUCAUCUGUGCAACUAUUAUUUCCUUUGGGAGUUUCCUCUUCAUGCAUUUUGUUCCUAGGGAAUAAAAAUAGCUGUUAGACCUGUGGAAUUCUCGGGUGCCAA	0.393
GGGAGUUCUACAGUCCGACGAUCUGUAGUAUCAACUGUGAACUGAAACCAGGUUGAUUUUAGUAACCACAUUCUUUGAUUUGACAUUGAUGUCAUCUUACAGGGCUGCGCUUGCUGGGCAUGCUUUUAAGUCUUGGAAUUCUCGGGUGCCAA	3.16
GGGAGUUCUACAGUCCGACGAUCGCUGCAGCUCUGCAUGCAAUUUAGUGGAAAAGAAGAGGAAGUCCAGACUUGAGUUGCCUGGCUACAUUGCUGAAAGCUUUGUAGCACUUGAAAAUUAAAUAUUGAUUUGUUGGAAUUCUCGGGUGCCAA	0.953
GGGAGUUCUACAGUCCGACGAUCUAUGUUGUCCUAACAAGCCAACCCCAACCAACAAUUGUUAAGCUGCUCCUUAAAAAUGAAACAGGAGAAAGCCUGGCAUUGUAUACCUGUUUUUGUUGCUCAGUAAUUCAUGGAAUUCUCGGGUGCCAA	0.346
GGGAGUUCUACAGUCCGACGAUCCUCACUUUCUGCUGUGUGGGCGGCCACAUAAAAAGGCAAUUUUAGUGUAUUAAUCAUAGAUUAUUAUAAACUAUAAACUUAAGGGCAAGGAAUUUAUUACAAUGUAUCUUUGGAAUUCUCGGGUGCCAA	0.404
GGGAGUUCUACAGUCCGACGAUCUGAUCCACGAAGGUGGUGCCCACAUCUAUGUCUGCGGGGAUGCUCGAAAUAUGGCCAAAGAUGUGCAGAACACAUUCUAUGACAUCGUGGCCGAGUUUGGGCCCAUGGAGUGGAAUUCUCGGGUGCCAA	0.305
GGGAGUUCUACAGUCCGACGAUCUUAGGGAAGGAGAAUGUUUGUCCUGUCUCCCUACACUUCCCUGAGGGCUUCUUCCUACCAAAGUGUCCCCUCACCAGUCUGCCUAGAGCAUCACUGGAACCCGCACUAAAUGGAAUUCUCGGGUGCCAA	1.16
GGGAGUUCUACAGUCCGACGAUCUUUUGGUAAUAUGAAGCUUGAAUACUGGUAACAGUGAUGCAAUAUACGCAAGCUGCACAACCUGUAUAUUGUAUGCAUUGCUGCGUGGAGGCUGUUUAUUUCAACCUUUUUGGAAUUCUCGGGUGCCAA	0.745

Sample 3
Target: RING finger protein unkempt homolog, zinc fingers 1-6, SBP tag (UNK, Homo sapiens, UniProt Q9C0B0, residues 30-357)
UniProt Q9C0B0, sequence (30-357, looked up): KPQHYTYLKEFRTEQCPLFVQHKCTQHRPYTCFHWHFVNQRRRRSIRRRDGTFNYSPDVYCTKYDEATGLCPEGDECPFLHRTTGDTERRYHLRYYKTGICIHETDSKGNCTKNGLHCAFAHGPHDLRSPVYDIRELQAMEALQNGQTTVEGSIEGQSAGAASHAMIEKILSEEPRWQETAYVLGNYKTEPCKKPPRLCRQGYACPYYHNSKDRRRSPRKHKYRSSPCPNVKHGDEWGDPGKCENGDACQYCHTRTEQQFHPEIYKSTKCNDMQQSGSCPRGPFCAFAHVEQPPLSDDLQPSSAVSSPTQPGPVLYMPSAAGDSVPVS
Technique: RNA Bind-n-Seq
Form: RNA
Medium: in vitro
Tested at: 100 nM
Notes: RNA with constant flanks, ends assumed
Reference: input RNA pool
Direction: higher = stronger binding
Sequence	bound/input enrichment
GGGAGUUCUACAGUCCGACGAUCAGGAAAUGCUGGCUGCAAACCCUCAGGAUCGUCCAGAUGCUUUUGAACCCGAACUCAGAUCCGUACAAAUUGCAUUUAAAGACCGCAGCUGGGAAACGUGACACAUAUUAUUUGCAAAUACAACAGAGGAUUGAGCAUCA	0.366 ratio
GGGAGUUCUACAGUCCGACGAUCUCCCAGCACUUUGAUAAAAAGUGUGGACUGGUUGCUUGUAUUUUCCUUAUUCUUUUUAAUCCGUUUUAUUAUGUAUGCUACCAUUCGAACUGAGAGUAUUCGGUGGCUAAUUCCAGGACACAACAGAGGAUUGAGCAUCA	0.979 ratio
GGGAGUUCUACAGUCCGACGAUCCAGUUCCGAUAUUCUUUUUAUUUUUUUUCUUUUCCCUCAAUCCUUUUUUAUUUUUAAAAACCGUUCUUUUGUAAUGUGGUGUUCAAAACGGAAUUGAAAACUGGCACCCCAUCUCUUUGACAACAGAGGAUUGAGCAUCA	1.58 ratio
GGGAGUUCUACAGUCCGACGAUCAGGGAUGGCCCCCAAUCCCACCUCUGUUUAUUCUGUAAACUGCAACCUAUAAAUAACCUUCCGCAUUCCUAUUGUAACAAAAUUAAUUUUUAUGAAAUAAAUUAUAUUUCCCCGUCUAAUCAACAGAGGAUUGAGCAUCA	0.516 ratio

Sample 4
Target: Prothrombin, mature alpha-thrombin (F2, Homo sapiens, UniProt P00734)
Technique: aptamer microarray, sandwich
Form: DNA with 2'F-ANA
Medium: in vitro
Tested at: 200 nM
Notes: whole 15-mer aptamer, many near background
With: Cy3 exosite-II aptamer, 400 nM
Direction: higher = stronger binding
Sequence: GGTTGGTGTGGTTGG
Modification	mean fluorescence intensity [a.u.]
2'F-ANA at 3 4 7 10 11 13 14 15	180
2'F-ANA at 3 6 7 9 11 13 15	750
2'F-ANA at 2 4 5 9 11 13 14	45
2'F-ANA at 2 5 8 9 10 11 14	61.5
2'F-ANA at 1 2 3 7 9 10 13 14	55.6
2'F-ANA at 1 2 4 5 7 8 9 13 14 15	46.4
2'F-ANA at 3 4 5 6 8 10 12 15	154
2'F-ANA at 2 3 5 7 8 10 13 14 15	52.4
2'F-ANA at 3 4 5 6 10 11 13	49
2'F-ANA at 1 2 3 5 6 9 10	46.2
2'F-ANA at 1 2 3 4 7 8 12 13 14 15	86.6
2'F-ANA at 2 4 6 8 9 10 11 14	65.3
2'F-ANA at 1 2 3 8 9 10 12 13 14 15	55.4
2'F-ANA at 2 4 5 6 9 11 13 15	52.7
2'F-ANA at 1 2 6 8 12 15	344
2'F-ANA at 2 5 8 10 13	46.3
2'F-ANA at 1 2 3 4 5 6 7 8 10 12 13 14 15	82.4
2'F-ANA at 1 3 4 7 9 11 12 14	77.9
2'F-ANA at 5 8 12	186
2'F-ANA at 3 7 9 10 11 13	550
2'F-ANA at 3 4 5 6 7 10 11 12 13	79.5
2'F-ANA at 3 4 5 6 7 8 11 13 15	106
2'F-ANA at 5 7 8 9 12 14	56.6
2'F-ANA at 2 3 4 7 10 12 14 15	243
2'F-ANA at 1 2 4 5 6 7 8 9 10 11 12 14 15	50.6

Some of these lines once more (sample 2):
Sequence	RBNS enrichment (R)
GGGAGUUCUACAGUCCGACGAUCCAGCAGCAGUCUAAUGCCAAGGUGCUCUAGAAACACUAAUGUUCCUCCAGGGGGGACUCCUCCCCACUCCCUCAGCCCUGGGGCCCCCCUAUCCUAAGACUCGGAAAGGCUGGAAUUCUCGGGUGCCAA	0.265
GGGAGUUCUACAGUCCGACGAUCUGUUUUUCUUGUAAAUGUGUUGGACAAAUGUGAAGAUGCGUUGUAGUUUACCCAUAUGCCCACAUUUAGUCUCUUUAUUCCUAGUUGGUGAGAAACCUGUAUCUUUCUAUUGGAAUUCUCGGGUGCCAA	0.524
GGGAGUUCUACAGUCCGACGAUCCUCACUUUCUGCUGUGUGGGCGGCCACAUAAAAAGGCAAUUUUAGUGUAUUAAUCAUAGAUUAUUAUAAACUAUAAACUUAAGGGCAAGGAAUUUAUUACAAUGUAUCUUUGGAAUUCUCGGGUGCCAA	0.404
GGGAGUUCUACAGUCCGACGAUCGCUGCAGCUCUGCAUGCAAUUUAGUGGAAAAGAAGAGGAAGUCCAGACUUGAGUUGCCUGGCUACAUUGCUGAAAGCUUUGUAGCACUUGAAAAUUAAAUAUUGAUUUGUUGGAAUUCUCGGGUGCCAA	0.953
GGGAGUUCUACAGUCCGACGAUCUCAUGGAAAAUUAACCAGAAAGUAUCAGUUCUUAAAAGUUAUGCCUAGAAAUUAUGUAAAGCUAAACUACUGGUUAGAAAGUAUUCAGUGUAAUAUUGUAUUAAUUUGUUUGGAAUUCUCGGGUGCCAA	1.06
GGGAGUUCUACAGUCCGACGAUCUUUUGGUAAUAUGAAGCUUGAAUACUGGUAACAGUGAUGCAAUAUACGCAAGCUGCACAACCUGUAUAUUGUAUGCAUUGCUGCGUGGAGGCUGUUUAUUUCAACCUUUUUGGAAUUCUCGGGUGCCAA	0.745
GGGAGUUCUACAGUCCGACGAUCUAUGUUGUCCUAACAAGCCAACCCCAACCAACAAUUGUUAAGCUGCUCCUUAAAAAUGAAACAGGAGAAAGCCUGGCAUUGUAUACCUGUUUUUGUUGCUCAGUAAUUCAUGGAAUUCUCGGGUGCCAA	0.346
